# Assay results from different studies.
# Lines come from different studies, so protocols differ.
# Organism: Acinetobacter baumannii
Compound,test,test system,setting,how to read,MIC
C[C@H]1COc2c(N3CCN(C)CC3)c(F)cc3c(=O)c(C(=O)O)cn1c23,,"1189854, multidrug-resistant",,,> 8 mg/L
CC[C@H](C)[C@H](NC(=O)[C@H](CC(C)C)NC(=O)[C@H](CCCNC(=N)N)NC(=O)[C@@H](N)CCCNC(=N)N)C(=O)N[C@@H](CC(C)C)C(=O)N[C@H](C(=O)N[C@@H](CCCCN)C(=O)N[C@H](C(=O)NCC(=O)N1CCC[C@H]1C(=O)N[C@H](C(=O)N[C@H](C(=O)N[C@@H](Cc1ccc(O)cc1)C(=O)N[C@@H](CCCCN)C(=O)N[C@@H](Cc1ccc(O)cc1)C(=O)N[C@@H](Cc1ccccc1)C(=O)N[C@@H](CCCCN)C(=O)N[C@@H](CCCCN)C(=O)N[C@@H](CCC(N)=O)C(=O)N[C@@H](CC(C)C)C(=O)N[C@@H](CCCCN)C(=O)N[C@@H](CCCCN)C(=O)N[C@@H](CC(C)C)C(N)=O)[C@@H](C)CC)[C@@H](C)CC)[C@@H](C)O)[C@@H](C)O,,"ATCC BAA1605, Mueller-Hinton broth",24 h,,2 µM
CC(=O)N[C@@H](CCCCN)C(=O)N[C@@H](CCCCN)C(=O)N[C@@H](CC(C)C)C(=O)N[C@@H](CC(C)C)C(=O)N[C@@H](CCCCN)C(=O)N[C@@H](CC(C)C)C(=O)N[C@@H](C)C(=O)N[C@@H](CCCCN)C(=O)N[C@@H](CCCCN)C(=O)N1CCC[C@H]1C(=O)N[C@@H](CC(C)C)C(=O)N[C@@H](CCCCN)C(=O)N[C@@H](CC(C)C)C(=O)N[C@@H](CC(C)C)C(=O)N[C@@H](CCCCN)C(N)=O,broth microdilution,ATCC 17978,"18 h, 37 °C, compound alone",,> 80 µM
CCN1CCN(C(=O)N[C@@H](C(=O)N[C@@H]2C(=O)N3[C@@H]2SC(C)(C)[C@@H]3C(=O)O)c2ccccc2)C(=O)C1=O,,carbapenem-resistant clinical isolate,,,> 64 mg/L
CC[C@H](C)[C@H](NC(=O)CNC(=O)[C@H](CC(=O)O)NC(=O)[C@H](CCCNC(=N)N)NC(=O)[C@@H](NC(=O)[C@H](CC(N)=O)NC(=O)[C@H](CCCNC(=N)N)NC(=O)CNC(=O)[C@@H](NC(=O)[C@H](CCCCN)NC(=O)[C@H](CCC(=O)O)NC(=O)[C@@H](NC(=O)[C@H](CCCCN)NC(=O)[C@H](CCCCN)NC(=O)[C@H](C)NC(=O)[C@@H](NC(=O)[C@H](CCCCN)NC(=O)[C@H](C)NC(=O)[C@@H](N)CCCNC(=N)N)[C@@H](C)CC)[C@@H](C)CC)C(C)C)C(C)C)C(=O)N[C@H](C(=O)N[C@@H](CCCCN)C(=O)N[C@@H](C)C(=O)NCC(=O)N1CCC[C@H]1C(=O)N[C@@H](C)C(=O)N[C@H](C(=O)N[C@@H](C)C(=O)N[C@H](C(=O)N[C@H](C(=O)NCC(=O)N[C@@H](CCC(N)=O)C(=O)N[C@@H](C)C(=O)N[C@@H](C)C(=O)N[C@H](C(=O)N[C@H](C(=O)N[C@H](C(=O)N[C@@H](CCCCN)C(N)=O)C(C)C)C(C)C)[C@@H](C)O)C(C)C)C(C)C)C(C)C)[C@@H](C)CC,,"KCCM 40203, Mueller-Hinton broth","16 h, 37 °C",growth inhibition over 99%,16 µM
N=C(N)NCCC[C@H](NC(=O)[C@H](Cc1c[nH]c2ccccc12)NC(=O)[C@H](CCCNC(=N)N)NC(=O)[C@@H](N)Cc1c[nH]c2ccccc12)C(=O)N[C@@H](Cc1ccccc1)C(=O)N[C@@H](CCC(N)=O)C(=O)N[C@@H](Cc1ccccc1)C(=O)N[C@@H](CCC(N)=O)C(=O)N[C@@H](Cc1ccccc1)C(=O)N[C@@H](CCCCN)C(N)=O,"broth microdilution, optical density",,,,140 µM
CN1C(=O)Cc2ccc(F)c(CCNC[C@H]3CN(c4ccc5c(n4)NC(=O)CO5)C(=O)O3)c21,,ATCC 19606,,,0.03 mg/L
CC[C@H](C)[C@H](NC(=O)[C@H](CC(C)C)NC(=O)[C@@H](NC(=O)[C@H](CCCNC(=N)N)NC(=O)[C@H](CCCNC(=N)N)NC(=O)[C@H](CCCNC(=N)N)NC(=O)[C@@H](N)CCCNC(=N)N)[C@@H](C)CC)C(=O)N[C@@H](CCCNC(=N)N)C(=O)N[C@@H](CCCNC(=N)N)C(=O)N[C@H](C(=O)N[C@@H](CC(C)C)C(=O)N[C@@H](CCCNC(=N)N)C(=O)N[C@@H](CC(C)C)C(=O)N[C@@H](CCCNC(=N)N)C(=O)N[C@@H](CO)C(=O)N[C@@H](CO)C(=O)N[C@@H](C)C(=O)N[C@@H](Cc1ccc(O)cc1)C(N)=O)C(C)C,broth microdilution,ATCC 17978,highest value reported,,16 µM
CC[C@H](C)CCCCC(=O)N[C@@H](CCN)C(=O)N[C@H](C(=O)N[C@@H](CCN)C(=O)N[C@H]1CCNC(=O)[C@H]([C@@H](C)O)NC(=O)[C@H](CCN)NC(=O)[C@H](CCN)NC(=O)[C@H](CC(C)C)NC(=O)[C@@H](CC(C)C)NC(=O)[C@H](CCN)NC1=O)[C@@H](C)O,broth microdilution,ATCC 19606,,,0.25 mg/L
CC[C@H](C)[C@H](NC(=O)CNC(=O)[C@H](CC(=O)O)NC(=O)[C@H](CCCNC(=N)N)NC(=O)[C@@H](NC(=O)[C@H](CC(N)=O)NC(=O)[C@H](CCCNC(=N)N)NC(=O)CNC(=O)[C@@H](NC(=O)[C@H](CCCCN)NC(=O)[C@H](CCC(=O)O)NC(=O)[C@@H](NC(=O)[C@H](CCCCN)NC(=O)[C@H](CCCCN)NC(=O)[C@H](Cc1ccccc1)NC(=O)[C@@H](NC(=O)[C@H](CCCCN)NC(=O)[C@H](Cc1c[nH]c2ccccc12)NC(=O)[C@@H](N)CCC(=O)O)[C@@H](C)CC)[C@@H](C)CC)C(C)C)C(C)C)C(=O)N[C@H](C(=O)N[C@@H](CCCCN)C(=O)N[C@@H](C)C(=O)NCC(=O)N1CCC[C@H]1C(=O)N[C@@H](C)C(=O)N[C@H](C(=O)N[C@@H](C)C(=O)N[C@H](C(=O)N[C@H](C(=O)NCC(=O)N[C@@H](CCC(N)=O)C(=O)N[C@@H](C)C(=O)N[C@@H](C)C(=O)N[C@H](C(=O)N[C@H](C(=O)N[C@H](C(=O)N[C@@H](CCCCN)C(N)=O)C(C)C)C(C)C)[C@@H](C)O)C(C)C)C(C)C)C(C)C)[C@@H](C)CC,,"KCCM 40203, Mueller-Hinton broth","16 h, 37 °C",growth inhibition over 99%,16 µM
CC[C@H](C)[C@H](NC(=O)[C@H](CC(C)C)NC(=O)[C@H](CCCNC(=N)N)NC(=O)[C@@H](N)CCCNC(=N)N)C(=O)N[C@@H](CC(C)C)C(=O)N[C@H](C(=O)N[C@@H](CCCCN)C(=O)N[C@H](C(=O)NCC(=O)N1CCC[C@H]1C(=O)N[C@H](C(=O)N[C@H](C(=O)N[C@@H](Cc1ccc(O)cc1)C(=O)N[C@@H](CCCCN)C(=O)N[C@@H](Cc1ccc(O)cc1)C(=O)N[C@@H](Cc1ccccc1)C(=O)N[C@@H](CCCCN)C(=O)N[C@@H](CCCCN)C(=O)N[C@@H](CCC(N)=O)C(=O)N[C@@H](CC(C)C)C(=O)N[C@@H](CC(C)C)C(=O)N[C@@H](CCCCN)C(=O)N[C@@H](CC(C)C)C(N)=O)[C@@H](C)CC)[C@@H](C)CC)[C@@H](C)O)[C@@H](C)O,,"ATCC BAA1605, Mueller-Hinton broth",24 h,,2 µM
CC[C@H](C)[C@H](NC(=O)CNC(=O)[C@H](CC(=O)O)NC(=O)[C@H](CCCNC(=N)N)NC(=O)[C@@H](NC(=O)[C@H](CC(N)=O)NC(=O)[C@H](CCCNC(=N)N)NC(=O)CNC(=O)[C@@H](NC(=O)[C@H](CCCCN)NC(=O)[C@H](CCC(=O)O)NC(=O)[C@@H](NC(=O)[C@H](CCCCN)NC(=O)[C@H](CCCCN)NC(=O)[C@H](Cc1ccccc1)NC(=O)[C@@H](NC(=O)[C@H](CCCCN)NC(=O)[C@H](Cc1c[nH]c2ccccc12)NC(=O)[C@@H](N)CCCNC(=N)N)[C@@H](C)CC)[C@@H](C)CC)C(C)C)C(C)C)C(=O)N[C@H](C(=O)N[C@@H](CCCCN)C(=O)N[C@@H](C)C(=O)NCC(=O)N1CCC[C@H]1C(=O)N[C@@H](C)C(=O)N[C@H](C(=O)N[C@@H](C)C(=O)N[C@H](C(=O)N[C@H](C(=O)NCC(=O)N[C@@H](CCC(N)=O)C(=O)N[C@@H](C)C(=O)N[C@@H](C)C(=O)N[C@H](C(=O)N[C@H](C(=O)N[C@H](C(=O)N[C@@H](CCCCN)C(N)=O)C(C)C)C(C)C)[C@@H](C)O)C(C)C)C(C)C)C(C)C)[C@@H](C)CC,"broth microdilution, MH medium",KCCM 40203,"16 h, 37 °C, growth inhibition over 99%",,1 µM
CC[C@H](C)[C@H](N)C(=O)N[C@@H](CCCNC(=N)N)C(=O)N[C@H](C(=O)N[C@@H](Cc1c[nH]c2ccccc12)C(=O)N[C@@H](Cc1c[nH]c2ccccc12)C(=O)N[C@@H](CCCCN)C(=O)N[C@H](C(=O)N[C@H](C(=O)N[C@@H](CCCNC(=N)N)C(=O)N[C@@H](CCCCN)C(=O)N[C@@H](Cc1c[nH]c2ccccc12)C(=O)N[C@@H](CCCCN)C(=O)N[C@@H](C)C(=O)N[C@H](C(=O)N[C@@H](Cc1c[nH]c2ccccc12)C(=O)N[C@@H](Cc1c[nH]cn1)C(N)=O)[C@@H](C)CC)C(C)C)[C@@H](C)CC)C(C)C,broth dilution,ATCC 19606,,,6.3 µM
CC[C@H](C)[C@H](NC(=O)CNC(=O)[C@H](CC(=O)O)NC(=O)[C@H](CCCNC(=N)N)NC(=O)[C@@H](NC(=O)[C@H](CC(N)=O)NC(=O)[C@H](CCCNC(=N)N)NC(=O)CNC(=O)[C@@H](NC(=O)[C@H](CCCCN)NC(=O)[C@H](CCC(=O)O)NC(=O)[C@@H](NC(=O)[C@H](CCCCN)NC(=O)[C@H](CCCCN)NC(=O)[C@H](Cc1ccccc1)NC(=O)[C@@H](NC(=O)[C@H](CCCCN)NC(=O)[C@H](Cc1c[nH]c2ccccc12)NC(=O)[C@@H](N)CCCNC(=N)N)[C@@H](C)CC)[C@@H](C)CC)C(C)C)C(C)C)C(=O)N[C@H](C(=O)N[C@@H](CCCCN)C(=O)N[C@@H](C)C(=O)NCC(=O)N1CCC[C@H]1C(=O)N[C@@H](C)C(=O)N[C@H](C(=O)N[C@@H](C)C(=O)N[C@H](C(=O)N[C@H](C(=O)NCC(=O)N[C@@H](CCC(N)=O)C(=O)N[C@@H](C)C(=O)N[C@@H](C)C(=O)N[C@H](C(=O)N[C@@H](C)C(=O)N[C@@H](C)C(=O)N[C@@H](CCCCN)C(N)=O)[C@@H](C)O)C(C)C)C(C)C)C(C)C)[C@@H](C)CC,,"KCCM 40203, Mueller-Hinton broth","16 h, 37 °C",growth inhibition over 99%,2 µM
CC[C@H](C)[C@H](NC(=O)[C@H](CC(C)C)NC(=O)[C@H](CCCCN)NC(=O)[C@@H](NC(=O)[C@H](C)NC(=O)[C@H](CCC(=O)O)NC(=O)[C@H](Cc1c[nH]cn1)NC(=O)[C@@H](NC(=O)[C@H](CCCCN)NC(=O)[C@H](CCC(N)=O)NC(=O)[C@H](Cc1ccccc1)NC(=O)[C@@H](NC(=O)[C@H](CCCCN)NC(=O)[C@H](CCCCN)NC(=O)[C@H](CC(C)C)NC(=O)[C@H](C)N)C(C)C)[C@@H](C)CC)[C@@H](C)CC)C(N)=O,CLSI broth microdilution,ATCC 19606,"18 h, 37 °C",,4 µM
